Assay results pooled from the literature.
Each line is one published result; not all experiments were run side by side.
Target: Tyrosine-protein kinase BTK (BTK, Homo sapiens, UniProt Q06187)
UniProt Q06187, sequence (whole entry, looked up): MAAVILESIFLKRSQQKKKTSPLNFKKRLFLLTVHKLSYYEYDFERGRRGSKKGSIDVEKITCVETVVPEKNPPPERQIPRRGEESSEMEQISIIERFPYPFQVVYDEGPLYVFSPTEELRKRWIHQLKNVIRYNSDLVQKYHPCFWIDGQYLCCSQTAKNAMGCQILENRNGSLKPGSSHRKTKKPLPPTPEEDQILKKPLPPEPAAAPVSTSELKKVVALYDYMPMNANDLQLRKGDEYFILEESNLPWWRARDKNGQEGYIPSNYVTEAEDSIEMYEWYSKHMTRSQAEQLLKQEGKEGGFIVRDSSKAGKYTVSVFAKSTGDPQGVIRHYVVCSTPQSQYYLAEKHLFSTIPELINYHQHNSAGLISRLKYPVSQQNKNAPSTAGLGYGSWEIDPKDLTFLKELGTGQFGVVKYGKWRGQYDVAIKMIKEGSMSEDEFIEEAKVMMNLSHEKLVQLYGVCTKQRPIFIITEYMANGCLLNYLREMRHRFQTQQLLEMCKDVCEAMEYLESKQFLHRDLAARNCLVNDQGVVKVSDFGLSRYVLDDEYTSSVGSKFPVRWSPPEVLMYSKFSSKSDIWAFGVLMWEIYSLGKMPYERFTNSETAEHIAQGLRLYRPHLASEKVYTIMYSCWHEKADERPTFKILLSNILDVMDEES

| Structure (SMILES) | assay | test system | conditions | how to read | measurement | result |
| --- | --- | --- | --- | --- | --- | --- |
| Cc1cccc(C)c1Nc1nn(C)c2nc(Nc3ccc4c(c3)CN(CC3CCN(c5ccc6c(c5)C(=O)N(C5CCC(=O)NC5=O)C6=O)CC3)CC4)ncc12 (centres unmarked) | degrader, western blot | TMD8 | 100 nM, 4 h | reference: vehicle | remaining protein | < 10% |
| CN(C1COC1)C(C)(C)/C=C(\C#N)C(=O)N1CCC[C@H]1Cn1nc(-c2ccc(Oc3ccccc3)cc2F)c2c(N)ncnc21 | fluorescence competition | – | – | – | residence time | 10100 min |
| C#CCSc1nc(Sc2nnnn2-c2ccccc2)c2nnn(Cc3ccccc3Cl)c2n1 | enzyme activity, inhibitor | – | 10 µM | – | inhibition | < 15% |
| C=CC(=O)N1CCc2ccc(-n3c(=O)ccc4cnc5ccc(-c6cnn(C)c6)cc5c43)cc21 | degrader | HEK293T | 1 µM, added: cycloheximide | – | degradation | ~50% |
| N#CCC(=O)N1CCC[C@H]1Cn1nc(-c2ccc(Oc3ccccc3)cc2F)c2c(N)ncnc21 | fluorescence competition | – | – | – | residence time | ≤ 5 min |
| Nc1ncnc2c1c(-c1ccc(Oc3ccccc3)cc1)nn2C1CCCN(C(=O)C2CC(Br)=NO2)C1 (mixture of isomers) | competitive in-gel fluorescence | – | 10 µM, 4 h, added: alkyne probe 1 µM | – | probe labeling blockade | inhibited |
| COc1ccc(Nc2nc(Nc3ccc(OC)c(OC)c3)c3nc[nH]c3n2)cc1OC | native mass spectrometry | crude cell lysate | 1 µM | – | fraction bound | 24% |
| COc1cc(C(=O)NC2CCC(N3CCN(CC4CCC5(CCCC5)C4)CC3)CC2)c(F)cc1Nc1ncc2c(n1)N(C1CCCC1(F)F)CC(F)(F)C(=O)N2C (centres unmarked) | cell-free assay, TR-FRET | – | 10 µM | – | inhibition | 3.1% |
